# Published values gathered from unrelated publications.
# A part holds a random share of what one study measured. Substitutions count along the parent as printed.

# Set 1 — target: CCNB2, cyclin fold, Cln2 fusion (human); method: yeast growth competition, sequencing; matrix: yeast; setting: weak parent motif; reference: not given; reading: higher = stronger binding
# Starting sequence: RB1 docking peptide (human); PKPLKKLRFDIEG
Substitution,normalised enrichment score
PKPLKKLSFDIEG [R8S],-0.043
PKPLKKLRKDIEG [F9K],-0.00693
PKPWKKLRFDIEG [L4W],0.365
PKPLKKLRLDIEG [F9L],0.406
PKPLKKLRFDCEG [I11C],0.456
TKPLKKLRFDIEG [P1T],0.308

# Set 2 — method: RNA Bind-n-Seq; form: RNA; matrix: in vitro; concentration: 365 nM; reference: no-protein control; reading: higher = stronger binding
# Target: RNA binding protein fox-1 homolog 2, RRM domain, GST-SBP tag (RBFOX2, Homo sapiens, UniProt O43251-10, residues 100-194)
# Setting: natural RNA segment, single round, ends assumed
# Target sequence (chain): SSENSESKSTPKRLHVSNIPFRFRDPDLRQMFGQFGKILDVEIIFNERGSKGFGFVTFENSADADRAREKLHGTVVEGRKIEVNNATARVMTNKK
Sequence,RBNS enrichment (R)
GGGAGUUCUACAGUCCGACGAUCUUGCACAGUACUAAGAGACUCAUUCAGAAAUCAAGACUUUAGAUGUAAUAUGUUGAUUAAAAUGUAGCACUAGAAAGCUUGUACUGAAAAUAAAGUCUGUGAGUGUGGGUUGGAAUUCUCGGGUGCCAA,0.528
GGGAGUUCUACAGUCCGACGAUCAAGGUAGCUGUCUGUUGCUAGGCAGCCGUUUGCACAAAUCUUGGACAUAAAUCCAACUUGAAGAUCACAUUUUGUGACUGGCUAAUUCUUUUAUGCCCUCGUGGCCAUGGUGGAAUUCUCGGGUGCCAA,0.273
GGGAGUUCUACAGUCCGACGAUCGCCCAGGCUCCAGCUCGCCUCCAGUGGAAGCCCGAGCGCCCUCAGAAACGACCCUGGCCAAUGUCAACGCAGAGCCGAGGCGGUGUUGUCACGGCUAAUGUGAAAUCUCUUGGAAUUCUCGGGUGCCAA,0.515
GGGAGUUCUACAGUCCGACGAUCCCUCCUCACCCCAGGUGCCUUAAGACAGCCCAGUUCUAACCUGAUAUUCAUGACCAAACUAGCCCUGACACUCAGGGACCUGGGCCUCUGCUGACUGUCAGGAGCAAAACUGGAAUUCUCGGGUGCCAA,0.545
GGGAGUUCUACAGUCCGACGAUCGCUCUGACUCCUAUUUAUCAUAUACUCACUCUGACUCUGAGGAAGGCAGAGAGGUGCCACUUGGCCUACUUGCUUCCUGUCCCCAAGACAGUCCUUUUCUUCUGAAGUAAUGGAAUUCUCGGGUGCCAA,0.436
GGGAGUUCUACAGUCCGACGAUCAUGGCAAUGGAUUAGAGACUAGUUUGAAAGUAACUCUUCACUGAAAAUAAAGCUAAUUUUAGGAAGAUAAACCCUAUGUGGGCUUGCUUGUACAUCUGACUGUGGCUGCUUGGAAUUCUCGGGUGCCAA,3.58
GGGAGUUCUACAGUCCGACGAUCAAAGCUGCGGUAUUAUUGGUUGAGAGGCGUCUUCUCACCUCUGGCUGAGAGCACUGGUGGGUUUGCAGGAGGCUGGGUGCUUCAGCCUACCCUUCCCCUUCCCCUCCCUUUGGAAUUCUCGGGUGCCAA,0.365
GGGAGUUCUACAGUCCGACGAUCCCGUACAAUAUUAAUGCAUGCGAUUCCAUAAUGCUUAGUGAACUGUAUGAAUAUUACUCAAAGUUAUGUUAGUCUUUUUUUCCGACUUGGUUCUUGUCAGCUAGGUUUAAUGGAAUUCUCGGGUGCCAA,9.03

# Set 3 — method: DHFR PCA, deep sequencing; matrix: yeast; together with: (+)-ABA 0.0091 µM; reference: wild-type fitted maximum; reading: higher = stronger binding
# Target: ABI1, truncated, D143A, DHFR fusion (Arabidopsis thaliana)
# Setting: methotrexate growth selection, single substitutions
# Starting sequence: PYL1, truncated, DHFR fusion (Arabidopsis thaliana); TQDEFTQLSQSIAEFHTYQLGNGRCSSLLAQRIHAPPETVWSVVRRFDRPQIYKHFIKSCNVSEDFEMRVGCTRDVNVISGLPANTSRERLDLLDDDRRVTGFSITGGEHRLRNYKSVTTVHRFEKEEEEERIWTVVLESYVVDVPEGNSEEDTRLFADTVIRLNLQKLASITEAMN; partner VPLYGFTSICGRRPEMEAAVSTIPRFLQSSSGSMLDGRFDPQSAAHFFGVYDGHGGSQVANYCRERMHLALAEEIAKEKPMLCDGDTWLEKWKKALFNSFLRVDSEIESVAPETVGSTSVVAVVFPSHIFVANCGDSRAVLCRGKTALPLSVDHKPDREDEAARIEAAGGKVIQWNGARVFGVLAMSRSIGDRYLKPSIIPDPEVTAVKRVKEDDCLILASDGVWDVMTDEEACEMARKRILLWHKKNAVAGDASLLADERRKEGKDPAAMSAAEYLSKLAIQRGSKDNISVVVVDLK
Substitution,relative binding score [%]
T120R,-0.7
L91M,7.71
D159G,1.84
V118C,8.25
Y53L,-1.4

# Single results of other studies
Substance,target,assay,test system,conditions,how to read,endpoint,result
"PhoQ, residues 284 288 289 292 302 303 SNSSNI","PhoP, residues 12 14 15 18 19 LFHKL (Escherichia coli, UniProt P23836)","Sort-seq, item: YFP reporter",E. coli,"PhoQ-PhoP variant library, together with: 10 µM Mg2+","reference: high Mg2+ state, higher = stronger signaling",fold induction,2.77

# For quick reference, copied from above (single results of other studies):
Substance,target,assay,test system,conditions,how to read,endpoint,result
"PhoQ, residues 284 288 289 292 302 303 SNSSNI","PhoP, residues 12 14 15 18 19 LFHKL (Escherichia coli, UniProt P23836)","Sort-seq, item: YFP reporter",E. coli,"PhoQ-PhoP variant library, together with: 10 µM Mg2+","reference: high Mg2+ state, higher = stronger signaling",fold induction,2.77
